Results of several laboratories.
Numbered parts are unrelated; each lists some results of a single study. Values joined by “and” are separate records of one study, mostly repeats; a detail may differ.
Chain of UniProt P29323 (whole entry, looked up): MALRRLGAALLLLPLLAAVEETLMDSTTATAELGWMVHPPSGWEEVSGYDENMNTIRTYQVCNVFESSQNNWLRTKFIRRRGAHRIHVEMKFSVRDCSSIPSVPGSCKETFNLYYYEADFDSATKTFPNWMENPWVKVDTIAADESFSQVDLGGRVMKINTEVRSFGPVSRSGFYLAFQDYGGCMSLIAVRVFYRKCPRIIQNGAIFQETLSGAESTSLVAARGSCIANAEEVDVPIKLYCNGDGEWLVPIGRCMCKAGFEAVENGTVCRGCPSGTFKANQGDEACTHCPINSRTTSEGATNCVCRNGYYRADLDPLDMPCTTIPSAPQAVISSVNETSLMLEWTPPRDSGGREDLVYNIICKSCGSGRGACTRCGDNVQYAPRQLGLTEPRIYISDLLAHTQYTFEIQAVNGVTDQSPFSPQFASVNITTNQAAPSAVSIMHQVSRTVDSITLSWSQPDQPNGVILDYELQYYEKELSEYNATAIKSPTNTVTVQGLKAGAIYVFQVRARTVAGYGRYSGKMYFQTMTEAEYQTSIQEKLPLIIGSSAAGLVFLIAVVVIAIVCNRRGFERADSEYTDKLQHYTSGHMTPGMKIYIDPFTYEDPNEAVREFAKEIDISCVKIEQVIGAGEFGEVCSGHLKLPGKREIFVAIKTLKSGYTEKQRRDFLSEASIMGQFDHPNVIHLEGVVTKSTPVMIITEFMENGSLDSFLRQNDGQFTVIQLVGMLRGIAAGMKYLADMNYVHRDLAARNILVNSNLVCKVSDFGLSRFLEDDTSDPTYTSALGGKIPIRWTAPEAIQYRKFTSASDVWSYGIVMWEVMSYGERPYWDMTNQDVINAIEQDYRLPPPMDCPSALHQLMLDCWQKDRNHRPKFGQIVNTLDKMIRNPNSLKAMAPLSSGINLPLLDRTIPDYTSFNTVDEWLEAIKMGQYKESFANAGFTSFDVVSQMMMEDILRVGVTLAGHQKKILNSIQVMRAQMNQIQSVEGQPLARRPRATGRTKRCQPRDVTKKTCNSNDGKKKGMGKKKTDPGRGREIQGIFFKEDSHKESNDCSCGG
Chain of UniProt Q9UM73 (whole entry, looked up): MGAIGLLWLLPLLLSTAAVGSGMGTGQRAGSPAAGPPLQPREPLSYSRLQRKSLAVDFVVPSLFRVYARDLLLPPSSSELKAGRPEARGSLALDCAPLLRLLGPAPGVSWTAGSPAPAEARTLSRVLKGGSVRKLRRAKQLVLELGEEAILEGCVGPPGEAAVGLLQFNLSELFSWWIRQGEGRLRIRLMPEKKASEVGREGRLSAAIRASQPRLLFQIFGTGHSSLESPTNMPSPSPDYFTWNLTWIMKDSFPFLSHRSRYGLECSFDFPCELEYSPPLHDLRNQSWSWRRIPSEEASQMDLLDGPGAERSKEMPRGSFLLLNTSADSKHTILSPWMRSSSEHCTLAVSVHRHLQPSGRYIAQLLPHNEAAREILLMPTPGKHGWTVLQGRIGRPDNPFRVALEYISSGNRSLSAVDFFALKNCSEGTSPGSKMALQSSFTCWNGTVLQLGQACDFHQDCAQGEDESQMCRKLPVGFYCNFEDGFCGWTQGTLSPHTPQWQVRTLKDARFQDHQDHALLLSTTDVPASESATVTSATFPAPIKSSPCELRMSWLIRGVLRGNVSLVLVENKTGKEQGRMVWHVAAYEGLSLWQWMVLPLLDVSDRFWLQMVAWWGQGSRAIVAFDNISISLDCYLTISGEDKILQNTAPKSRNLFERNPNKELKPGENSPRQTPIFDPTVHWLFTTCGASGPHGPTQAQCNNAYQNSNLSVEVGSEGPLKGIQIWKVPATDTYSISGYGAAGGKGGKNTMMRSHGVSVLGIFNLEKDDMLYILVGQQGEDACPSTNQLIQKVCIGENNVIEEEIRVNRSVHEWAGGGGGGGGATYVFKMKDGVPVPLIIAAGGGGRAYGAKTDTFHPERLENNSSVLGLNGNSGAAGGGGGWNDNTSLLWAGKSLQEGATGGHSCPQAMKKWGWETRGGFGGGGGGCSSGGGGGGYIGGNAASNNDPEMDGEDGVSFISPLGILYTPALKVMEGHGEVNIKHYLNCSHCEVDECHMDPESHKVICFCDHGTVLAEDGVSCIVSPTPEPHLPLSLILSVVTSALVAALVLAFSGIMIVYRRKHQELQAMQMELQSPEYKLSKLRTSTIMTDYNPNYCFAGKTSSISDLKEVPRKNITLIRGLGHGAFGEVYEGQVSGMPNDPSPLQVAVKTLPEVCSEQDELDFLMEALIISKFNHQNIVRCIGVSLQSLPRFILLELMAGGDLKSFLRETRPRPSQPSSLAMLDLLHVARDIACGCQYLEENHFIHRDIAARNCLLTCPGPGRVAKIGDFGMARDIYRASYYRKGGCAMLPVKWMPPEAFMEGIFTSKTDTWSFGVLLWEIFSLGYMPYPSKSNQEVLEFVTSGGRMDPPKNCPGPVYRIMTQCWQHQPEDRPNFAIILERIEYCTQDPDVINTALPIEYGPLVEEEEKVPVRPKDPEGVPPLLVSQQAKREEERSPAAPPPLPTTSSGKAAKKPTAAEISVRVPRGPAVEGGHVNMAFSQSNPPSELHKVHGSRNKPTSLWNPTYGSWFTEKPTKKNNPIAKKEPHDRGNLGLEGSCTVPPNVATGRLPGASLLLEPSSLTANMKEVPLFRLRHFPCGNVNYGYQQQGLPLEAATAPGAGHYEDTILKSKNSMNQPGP
Chain of UniProt O60285 (whole entry, looked up): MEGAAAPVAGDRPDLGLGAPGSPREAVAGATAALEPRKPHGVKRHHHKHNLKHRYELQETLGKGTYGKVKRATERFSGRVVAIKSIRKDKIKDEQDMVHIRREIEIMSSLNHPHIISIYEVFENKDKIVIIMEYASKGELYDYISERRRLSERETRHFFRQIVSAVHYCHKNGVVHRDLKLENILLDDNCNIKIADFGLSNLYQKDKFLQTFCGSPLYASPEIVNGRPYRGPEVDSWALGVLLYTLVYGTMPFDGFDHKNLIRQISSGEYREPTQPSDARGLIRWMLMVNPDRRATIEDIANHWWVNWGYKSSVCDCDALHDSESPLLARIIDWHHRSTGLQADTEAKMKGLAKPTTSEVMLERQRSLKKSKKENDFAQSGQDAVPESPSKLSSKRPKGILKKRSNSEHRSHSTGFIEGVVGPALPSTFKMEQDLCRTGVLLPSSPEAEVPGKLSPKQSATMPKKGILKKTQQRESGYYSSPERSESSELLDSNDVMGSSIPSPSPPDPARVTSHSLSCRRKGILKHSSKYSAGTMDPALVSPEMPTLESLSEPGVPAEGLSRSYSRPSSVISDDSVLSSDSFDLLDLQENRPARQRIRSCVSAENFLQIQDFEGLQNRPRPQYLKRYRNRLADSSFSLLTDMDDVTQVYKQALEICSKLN
Chain of UniProt Q15418 (whole entry, looked up): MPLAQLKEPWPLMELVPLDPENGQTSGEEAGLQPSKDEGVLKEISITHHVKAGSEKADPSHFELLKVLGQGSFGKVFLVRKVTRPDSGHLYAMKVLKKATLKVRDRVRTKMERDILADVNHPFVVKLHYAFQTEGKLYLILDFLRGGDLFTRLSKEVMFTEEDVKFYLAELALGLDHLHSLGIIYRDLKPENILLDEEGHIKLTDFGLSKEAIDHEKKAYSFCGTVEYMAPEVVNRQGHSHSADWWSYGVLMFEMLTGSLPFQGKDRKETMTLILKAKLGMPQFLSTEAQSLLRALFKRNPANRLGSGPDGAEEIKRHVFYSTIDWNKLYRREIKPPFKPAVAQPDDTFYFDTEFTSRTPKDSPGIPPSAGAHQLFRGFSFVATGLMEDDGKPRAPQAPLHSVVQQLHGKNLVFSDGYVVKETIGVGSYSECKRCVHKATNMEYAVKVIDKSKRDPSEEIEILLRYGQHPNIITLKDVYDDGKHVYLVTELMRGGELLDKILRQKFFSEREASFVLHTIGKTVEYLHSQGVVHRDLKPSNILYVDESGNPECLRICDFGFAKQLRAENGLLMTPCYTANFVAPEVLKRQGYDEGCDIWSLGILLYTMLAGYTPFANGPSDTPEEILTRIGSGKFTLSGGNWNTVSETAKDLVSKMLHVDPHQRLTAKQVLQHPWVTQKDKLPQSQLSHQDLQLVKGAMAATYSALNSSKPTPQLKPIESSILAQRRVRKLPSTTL
Chain of UniProt Q13163 (whole entry, looked up): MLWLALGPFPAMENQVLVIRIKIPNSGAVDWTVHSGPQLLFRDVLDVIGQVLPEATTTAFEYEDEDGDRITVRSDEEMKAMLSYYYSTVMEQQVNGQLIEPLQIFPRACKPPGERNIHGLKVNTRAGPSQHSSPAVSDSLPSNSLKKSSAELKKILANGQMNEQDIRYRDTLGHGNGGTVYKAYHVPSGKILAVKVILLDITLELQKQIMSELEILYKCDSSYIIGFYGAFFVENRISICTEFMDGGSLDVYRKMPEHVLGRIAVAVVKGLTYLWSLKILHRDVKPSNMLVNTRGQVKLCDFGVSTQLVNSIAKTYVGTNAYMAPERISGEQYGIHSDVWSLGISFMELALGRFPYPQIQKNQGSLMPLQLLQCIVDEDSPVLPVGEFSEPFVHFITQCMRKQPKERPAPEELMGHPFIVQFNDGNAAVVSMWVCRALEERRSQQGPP
Chain of UniProt P08631 (whole entry, looked up): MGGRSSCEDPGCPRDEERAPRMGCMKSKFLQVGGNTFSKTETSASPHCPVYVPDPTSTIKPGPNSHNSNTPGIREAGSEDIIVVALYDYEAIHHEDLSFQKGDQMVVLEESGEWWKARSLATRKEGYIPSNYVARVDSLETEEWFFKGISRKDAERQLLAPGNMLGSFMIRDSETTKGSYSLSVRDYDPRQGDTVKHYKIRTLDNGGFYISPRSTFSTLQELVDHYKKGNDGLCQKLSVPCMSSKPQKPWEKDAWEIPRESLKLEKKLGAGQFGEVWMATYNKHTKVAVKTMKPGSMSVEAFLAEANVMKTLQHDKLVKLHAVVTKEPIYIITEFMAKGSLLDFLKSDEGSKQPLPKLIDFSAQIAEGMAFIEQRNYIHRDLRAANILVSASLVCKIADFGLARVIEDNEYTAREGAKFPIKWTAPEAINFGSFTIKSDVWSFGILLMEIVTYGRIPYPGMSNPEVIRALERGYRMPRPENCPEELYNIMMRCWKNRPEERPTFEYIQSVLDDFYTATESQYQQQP

Block 1
Compound: CN1CCN(c2ccc3nc(-c4c(N)c5c(F)cccc5[nH]c4=O)[nH]c3c2)CC1
Read-out: enzyme activity
Mode: inhibitor
Concentration: 0.5 µM
Baseline: control
target	remaining activity [%]
Serine/threonine-protein kinase PAK 2 (PAK2, Homo sapiens, UniProt Q13177)	96.9
Aurora kinase C (AURKC, Homo sapiens, UniProt Q9UQB9)	82.3
Ephrin type-B receptor 2 (EPHB2, Homo sapiens, UniProt P29323)	86.1
SRSF protein kinase 3 (SRPK3, Homo sapiens, UniProt Q9UPE1)	104
Ribosomal protein S6 kinase alpha-1 (RPS6KA1, Homo sapiens, UniProt Q15418)	22.2
Ephrin type-A receptor 7 (EPHA7, Homo sapiens, UniProt Q15375)	76.5
NUAK family SNF1-like kinase 1 (NUAK1, Homo sapiens, UniProt O60285)	3.13
Myosin light chain kinase, smooth muscle (MYLK, Homo sapiens, UniProt Q15746)	76.6

Block 2
Compound: CS(=O)(=O)N1CCCC(NC(=O)[C@H](CCC2CCCCC2)NC(=O)c2ccc(CNC(=O)c3cnc4ccccn34)cc2)C1 (stereo partly drawn)
Read-out: cell-free assay
Technique: competition with immobilised ligand
Concentration: 0.1 µM
target	remaining binding [%]
Activin receptor type-1 (ACVR1, Homo sapiens, UniProt Q04771)	70
Serine/threonine-protein kinase Chk1 (CHEK1, Homo sapiens, UniProt O14757)	100
Serine/threonine-protein kinase LATS2 (LATS2, Homo sapiens, UniProt Q9NRM7)	76
Tyrosine-protein kinase HCK (HCK, Homo sapiens, UniProt P08631)	100
Phosphatidylinositol 4,5-bisphosphate 3-kinase catalytic subunit alpha isoform (PIK3CA, Homo sapiens, UniProt P42336, I800L)	100
ALK tyrosine kinase receptor (ALK, Homo sapiens, UniProt Q9UM73)	100
Serine/threonine-protein kinase DCLK3 (DCLK3, Homo sapiens, UniProt Q9C098)	97
Dual specificity mitogen-activated protein kinase kinase 5 (MAP2K5, Homo sapiens, UniProt Q13163)	97

Block 3
SMILES: CC(C)(C(=O)O)[C@H](NC(=O)Cc1cccc(I)c1)c1ccc2oc(=O)[nH]c2c1
Cell line: HEK293T
Read-out: protein-protein interaction
Technique: NanoBiT
Time: 4 h
Notes: LgBiT-linker-SmBiT control pair
Reading: higher = more interaction
setting	luminescence signal
3.33 nM	111 a.u. and 117 a.u. and 127 a.u.
10 nM	118 a.u. and 129 a.u. and 115 a.u.
0.04 nM	113 a.u. and 103 a.u. and 99.5 a.u.
30 nM	127 a.u. and 120 a.u. and 133 a.u.

Mixed results
SMILES	cell line	test	endpoint	value
NC(=O)c1cccc(-c2cc(Nc3ccc(OC(F)(F)F)cc3)ncn2)c1	BCR-ABL-expressing Ba/F3	cell proliferation	GI50	0.52 µM

Some of these lines once more (block 2):
target	remaining binding [%]
Serine/threonine-protein kinase Chk1 (CHEK1, Homo sapiens, UniProt O14757)	100
Serine/threonine-protein kinase LATS2 (LATS2, Homo sapiens, UniProt Q9NRM7)	76
Tyrosine-protein kinase HCK (HCK, Homo sapiens, UniProt P08631)	100
